Assay results gathered from unrelated publications.
Each line is one published result; not all experiments were run side by side. ± gives the spread as reported.
HDAC11: Histone deacetylase 11 (HDAC11, Homo sapiens, UniProt Q96DB2)
Sequence of UniProt Q96DB2 (whole entry, looked up): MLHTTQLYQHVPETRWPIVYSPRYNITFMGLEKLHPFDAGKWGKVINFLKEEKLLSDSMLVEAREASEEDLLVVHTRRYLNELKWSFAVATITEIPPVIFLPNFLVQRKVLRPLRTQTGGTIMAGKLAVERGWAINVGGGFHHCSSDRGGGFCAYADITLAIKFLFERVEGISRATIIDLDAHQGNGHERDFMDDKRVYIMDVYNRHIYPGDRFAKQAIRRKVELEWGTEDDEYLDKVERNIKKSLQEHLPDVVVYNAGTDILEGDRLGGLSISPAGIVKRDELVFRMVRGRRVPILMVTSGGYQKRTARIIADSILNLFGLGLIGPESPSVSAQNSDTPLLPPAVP
DRD4: D(4) dopamine receptor (DRD4, Homo sapiens, UniProt P21917)
Sequence of UniProt P21917 (whole entry, looked up): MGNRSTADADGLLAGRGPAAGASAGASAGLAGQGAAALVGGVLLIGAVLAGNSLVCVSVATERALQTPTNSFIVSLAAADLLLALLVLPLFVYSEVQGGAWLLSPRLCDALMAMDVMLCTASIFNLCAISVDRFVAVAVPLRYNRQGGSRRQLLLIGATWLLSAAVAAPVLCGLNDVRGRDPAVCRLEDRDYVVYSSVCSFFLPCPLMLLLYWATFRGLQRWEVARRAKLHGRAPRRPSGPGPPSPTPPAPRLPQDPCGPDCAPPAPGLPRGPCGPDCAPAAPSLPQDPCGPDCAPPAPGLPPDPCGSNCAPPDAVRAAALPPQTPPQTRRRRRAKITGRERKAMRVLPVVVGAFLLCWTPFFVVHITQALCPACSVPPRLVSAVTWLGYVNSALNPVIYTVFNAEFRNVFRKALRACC
KMT2C: Histone-lysine N-methyltransferase 2C (KMT2C, Homo sapiens, UniProt Q8NEZ4)
PLAU: Urokinase-type plasminogen activator (PLAU, Homo sapiens, UniProt P00749)
Sequence of UniProt Q03181 (whole entry, looked up): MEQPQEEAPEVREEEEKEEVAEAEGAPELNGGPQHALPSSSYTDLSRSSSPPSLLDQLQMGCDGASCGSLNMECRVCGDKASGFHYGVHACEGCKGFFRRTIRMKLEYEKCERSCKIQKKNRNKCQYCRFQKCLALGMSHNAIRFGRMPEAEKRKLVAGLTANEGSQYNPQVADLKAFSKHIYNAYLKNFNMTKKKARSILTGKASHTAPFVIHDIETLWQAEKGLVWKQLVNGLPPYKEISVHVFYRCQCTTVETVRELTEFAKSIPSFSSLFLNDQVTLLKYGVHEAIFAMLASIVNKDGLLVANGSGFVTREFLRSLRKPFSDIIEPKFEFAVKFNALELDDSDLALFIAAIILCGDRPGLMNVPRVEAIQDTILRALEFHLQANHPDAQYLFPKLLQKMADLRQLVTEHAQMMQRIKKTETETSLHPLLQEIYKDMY
Sequence of UniProt P22059 (whole entry, looked up): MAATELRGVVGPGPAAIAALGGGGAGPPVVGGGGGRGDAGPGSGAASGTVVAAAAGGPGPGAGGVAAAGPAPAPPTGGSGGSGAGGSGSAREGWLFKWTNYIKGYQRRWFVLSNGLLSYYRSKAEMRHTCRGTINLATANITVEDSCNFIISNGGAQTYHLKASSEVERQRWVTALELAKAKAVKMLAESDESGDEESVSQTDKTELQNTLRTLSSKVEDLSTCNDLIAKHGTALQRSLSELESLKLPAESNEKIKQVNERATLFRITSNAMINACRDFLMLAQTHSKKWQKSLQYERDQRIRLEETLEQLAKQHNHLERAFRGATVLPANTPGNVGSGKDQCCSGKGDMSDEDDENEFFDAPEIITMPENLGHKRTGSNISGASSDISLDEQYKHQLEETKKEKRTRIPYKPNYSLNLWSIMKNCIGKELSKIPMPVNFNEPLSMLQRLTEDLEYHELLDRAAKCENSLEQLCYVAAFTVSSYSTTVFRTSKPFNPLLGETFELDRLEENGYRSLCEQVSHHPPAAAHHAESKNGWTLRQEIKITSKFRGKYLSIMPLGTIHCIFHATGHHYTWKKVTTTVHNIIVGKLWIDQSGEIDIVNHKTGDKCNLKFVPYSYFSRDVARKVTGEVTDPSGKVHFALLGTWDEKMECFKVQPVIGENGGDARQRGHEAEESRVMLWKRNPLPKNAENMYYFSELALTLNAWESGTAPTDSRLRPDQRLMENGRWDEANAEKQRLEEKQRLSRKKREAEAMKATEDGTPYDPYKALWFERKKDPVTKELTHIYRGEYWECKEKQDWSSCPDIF
Sequence of UniProt P35348 (whole entry, unmodified, looked up): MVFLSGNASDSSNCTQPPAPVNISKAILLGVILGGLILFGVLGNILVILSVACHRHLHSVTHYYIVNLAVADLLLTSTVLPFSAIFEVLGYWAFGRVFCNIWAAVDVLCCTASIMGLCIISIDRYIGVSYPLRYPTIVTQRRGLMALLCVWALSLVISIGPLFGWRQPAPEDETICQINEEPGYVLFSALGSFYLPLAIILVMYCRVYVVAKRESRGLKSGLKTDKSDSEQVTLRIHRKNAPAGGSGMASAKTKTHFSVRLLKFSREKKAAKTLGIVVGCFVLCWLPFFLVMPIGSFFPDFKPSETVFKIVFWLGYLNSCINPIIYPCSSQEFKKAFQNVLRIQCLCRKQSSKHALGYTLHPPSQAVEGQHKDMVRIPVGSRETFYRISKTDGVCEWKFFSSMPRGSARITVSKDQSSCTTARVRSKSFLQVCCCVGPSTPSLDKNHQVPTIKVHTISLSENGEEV
Sequence of UniProt Q13946 (whole entry, looked up): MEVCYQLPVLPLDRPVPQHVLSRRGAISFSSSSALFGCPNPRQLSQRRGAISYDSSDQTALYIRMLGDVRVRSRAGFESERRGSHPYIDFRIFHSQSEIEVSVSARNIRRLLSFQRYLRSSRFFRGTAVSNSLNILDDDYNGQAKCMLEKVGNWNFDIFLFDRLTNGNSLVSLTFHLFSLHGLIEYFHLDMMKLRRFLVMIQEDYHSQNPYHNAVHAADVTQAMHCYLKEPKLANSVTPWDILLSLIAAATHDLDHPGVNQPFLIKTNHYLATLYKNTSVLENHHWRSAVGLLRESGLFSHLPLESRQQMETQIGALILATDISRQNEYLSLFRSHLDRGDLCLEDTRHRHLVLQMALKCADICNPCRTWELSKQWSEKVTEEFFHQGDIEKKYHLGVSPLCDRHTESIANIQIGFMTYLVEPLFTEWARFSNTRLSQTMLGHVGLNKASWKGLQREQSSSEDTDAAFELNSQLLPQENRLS
Sequence of UniProt P52790 (whole entry, unmodified, looked up): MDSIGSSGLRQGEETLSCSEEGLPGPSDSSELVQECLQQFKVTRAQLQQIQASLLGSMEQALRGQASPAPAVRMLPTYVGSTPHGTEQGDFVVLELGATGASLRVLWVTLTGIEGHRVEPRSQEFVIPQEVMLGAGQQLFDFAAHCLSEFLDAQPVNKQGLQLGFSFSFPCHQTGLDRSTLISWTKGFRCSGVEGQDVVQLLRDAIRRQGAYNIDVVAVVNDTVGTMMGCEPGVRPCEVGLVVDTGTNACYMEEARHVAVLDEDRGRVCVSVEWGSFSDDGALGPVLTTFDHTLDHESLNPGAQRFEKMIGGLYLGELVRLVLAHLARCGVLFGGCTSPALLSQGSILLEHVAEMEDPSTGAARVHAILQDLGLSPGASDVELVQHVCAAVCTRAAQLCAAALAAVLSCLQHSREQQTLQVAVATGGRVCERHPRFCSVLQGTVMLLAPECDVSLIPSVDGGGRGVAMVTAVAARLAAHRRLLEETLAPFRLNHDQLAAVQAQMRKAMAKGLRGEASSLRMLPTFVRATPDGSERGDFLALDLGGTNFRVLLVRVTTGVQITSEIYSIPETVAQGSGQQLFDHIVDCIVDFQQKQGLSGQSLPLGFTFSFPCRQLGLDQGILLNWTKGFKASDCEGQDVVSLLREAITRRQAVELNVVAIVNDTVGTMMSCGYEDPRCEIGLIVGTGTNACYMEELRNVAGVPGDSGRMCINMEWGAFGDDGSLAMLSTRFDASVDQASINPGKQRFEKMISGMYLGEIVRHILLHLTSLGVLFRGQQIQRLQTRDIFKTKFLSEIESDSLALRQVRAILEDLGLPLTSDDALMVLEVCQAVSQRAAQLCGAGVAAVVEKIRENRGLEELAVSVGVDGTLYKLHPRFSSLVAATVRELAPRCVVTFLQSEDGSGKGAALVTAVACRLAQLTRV
Sequence of UniProt P30968 (whole entry, unmodified, looked up): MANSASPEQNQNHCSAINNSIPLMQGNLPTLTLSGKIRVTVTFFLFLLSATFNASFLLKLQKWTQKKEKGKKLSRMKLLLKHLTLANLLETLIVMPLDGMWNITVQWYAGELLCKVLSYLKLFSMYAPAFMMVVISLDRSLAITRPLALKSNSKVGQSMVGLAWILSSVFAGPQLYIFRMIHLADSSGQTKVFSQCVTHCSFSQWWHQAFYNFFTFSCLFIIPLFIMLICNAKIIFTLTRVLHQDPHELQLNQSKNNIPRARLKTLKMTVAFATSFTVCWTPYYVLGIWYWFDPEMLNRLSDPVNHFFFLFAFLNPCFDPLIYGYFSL

| Structure (SMILES) | target | test | system | conditions | Ki |
| --- | --- | --- | --- | --- | --- |
| O=C(NO)c1cccc(OS(=O)(=O)Oc2ccc3ccccc3c2)c1 | HDAC11 | – | – | – | 0.825 µM |
| OC[C@H]1N/C(=N\Cc2ccc(C(F)(F)F)cc2)[C@H](O)[C@@H](O)[C@H]1O | β-glucosidase sweet almond | enzyme activity, inhibitor | – | pH 5.00 | 0.0879 ± 0.0075 µM |
| OC[C@H]1OC(O)[C@H](O)[C@@H](O)[C@@H]1O (stereo partly shown) | Hexokinase-3 (HK3, Homo sapiens, UniProt P52790, N221A) | substrate inhibition | – | mutant N221A, partial substrate inhibition model, together with: ATP 20 mM | 51000 ± 5000 µM |
| C[C@@H]1Cc2ccccc2N1C(=O)NCCCCN(C)[C@@H]1Cc2cccc3[nH]c(=O)n(c23)C1 | DRD4 | binding | – | – | 0.044 ± 0.00595 µM |
| Nc1ncnc2c1ncn2[C@@H]1O[C@H](CSCC[C@H](N)C(=O)O)[C@@H](O)[C@H]1O | KMT2C | methyltransferase activity, noncompetitive inhibitor, MALDI-TOF mass spectrometry | – | together with: varied H3 peptide | 170 µM |
| OC[C@H]1N/C(=N\Cc2ccc(F)cc2)[C@H](O)[C@@H](O)[C@H]1O | β-glucosidase sweet almond | enzyme activity, inhibitor | – | pH 5.00 | 0.0575 ± 0.0065 µM |
| Cc1ccc2[nH]c(=O)c(CNC3CCCCC3)cc2c1 | ADRA1A (Homo sapiens, UniProt P35348, I178V/M292L) | flow cytometry competition binding | COS-7 | I178V M292L mutant | 1.1 µM |
| O=C(NO)c1cccc(OS(=O)(=O)Oc2ccc(Oc3ccccc3)cc2)c1 | HDAC11 | – | – | – | 0.298 µM |
| Cc1c(C)n(Cc2ccc(-c3ccccc3C(=O)O)cc2)c2ccc(C(=O)N[C@@H](C)c3ccc([N+](=O)[O-])cc3)cc12 | PPARD (Homo sapiens, UniProt Q03181) | – | – | – | 10.5 µM |
| Cc1cccc(C/N=C2\N[C@H](CO)[C@H](O)[C@H](O)[C@H]2O)c1 | β-glucosidase sweet almond | enzyme activity, inhibitor | – | pH 5.00 | 0.293 ± 0.096 µM |
| COc1cccc(-c2c(C)n(Cc3c(F)cccc3C(F)(F)F)c(=O)n(C[C@H](NCCCC(=O)O)c3ccccc3)c2=O)c1F | GNRHR (Homo sapiens, UniProt P30968, del191-191) | – | – | – | 0.00028 ± 0.00012 µM |
| Cc1ccccc1C/N=C1\N[C@H](CO)[C@H](O)[C@H](O)[C@H]1O | β-glucosidase sweet almond | enzyme activity, inhibitor | – | pH 5.00 | 0.0262 ± 0.0027 µM |
| CN(CCCCNC(=O)c1cc2ccccc2[nH]1)[C@@H]1Cc2cccc3[nH]c(=O)n(c23)C1 | DRD4 | binding | – | – | 0.899 ± 0.154 µM |
| OC[C@H]1N/C(=N\CC2CC2)[C@H](O)[C@@H](O)[C@H]1O | β-glucosidase sweet almond | enzyme activity, inhibitor | – | pH 5.00 | 0.0115 ± 0.0053 µM |
| Cc1c(OS(=O)(=O)Oc2ccccc2)cccc1C(=O)NO | HDAC11 | – | – | – | 2.5 µM |
| COc1cc(C2CC2c2ccc3c(c2)C(C(C)C)N(C)CC3)cc2ccc(C(=N)N)cc12 (stereo not shown) | PLAU | inhibitor | – | pH 7.4 | 0.094 µM |
| CC(C)C[C@H](NC(=O)[C@H](Cc1ccccc1)NC(=O)c1cnccn1)B(O)O | 20S proteasome (Plasmodium falciparum, UniProt A0A5K1K7U1+Q8IJT1) | inhibitor, progress curve | – | – | 0.0062 µM |
| COc1ccc2ccc(C(=N)N)cc2c1-c1cnn(C(C)C)c1 | PLAU | inhibitor | – | pH 7.4 | 4.5 µM |
| Cc1c(OS(=O)(=O)Oc2ccc(C(F)(F)F)cc2)cccc1C(=O)NO | HDAC11 | – | – | – | 0.187 µM |

| Structure (SMILES) | target | test | system | conditions | Ki |
| --- | --- | --- | --- | --- | --- |
| CN(C[C@@H]1C[C@H]1CCNC(=O)c1cc2ccccc2[nH]1)[C@@H]1Cc2cccc3[nH]c(=O)n(c23)C1 | DRD4 | binding | – | – | 1.49 ± 0.142 µM |
| N=C(N)c1ccc2cc(C(=O)Nc3ccc4c(c3)C(C3CCCCC3)=NCC4)ccc2c1 | PLAU | inhibitor | – | pH 7.4 | 0.0663 µM |
| OC[C@H]1N/C(=N\Cc2ccccc2)[C@H](O)[C@@H](O)[C@H]1O | β-glucosidase sweet almond | enzyme activity, inhibitor | – | pH 5.00 | 0.108 ± 0.002 µM |
| Cc1c(OS(=O)(=O)Oc2cccc(C(C)(C)C)c2)cccc1C(=O)NO | HDAC11 | – | – | – | 0.646 µM |
| C=CCNC(=O)Nc1cccc2ccc(N)nc12 | PLAU | inhibitor | – | pH 7.4 | > 10 µM |
| O=[N+]([O-])c1ccc2c(N=Nc3c(O)ccc4ccccc34)c(O)cc(S(=O)(=O)O)c2c1 | Diphosphomevalonate decarboxylase (Staphylococcus epidermidis, UniProt Q9FD73) | inhibitor | – | pH 7, together with: ATP (varied) | 1.8 ± 0.1 µM |
| Cc1cc(C(C)(C)C)ccc1OS(=O)(=O)Oc1cccc(C(=O)NO)c1 | HDAC11 | – | – | – | 0.861 µM |
| CCCCCCCCCCCC/N=C1\N[C@H](CO)[C@H](O)[C@H](O)[C@H]1O | β-glucosidase sweet almond | enzyme activity, inhibitor | – | pH 5.00 | 0.0205 ± 0.0069 µM |
| C#CCN(C)C(=O)c1ccc2ccc(N)nc2c1 | PLAU | inhibitor | – | pH 7.4 | > 100 µM |
| Cc1ccc([C@H]2C[C@@H]2COc2cc(NCc3nnc(C)s3)nc(C)n2)nc1 | PDE7A (Homo sapiens, UniProt Q13946) | enzyme activity, inhibitor, IMAP fluorescence polarization | – | together with: cAMP substrate | > 75 µM |
| O=C(NO)c1cncc(OS(=O)(=O)Oc2ccc3ccccc3c2)c1 | HDAC11 | – | – | – | 2.99 µM |
| Nc1ncnc2c1ncn2[C@@H]1O[C@H](C[C@@H](N)CC[C@H](N)C(=O)O)[C@@H](O)[C@H]1O | KMT2C | methyltransferase activity, competitive inhibitor, enzyme-coupled methylation | – | together with: varied S-adenosylmethionine | 5.74 µM |
| CN1CCc2ccc(C3CC3c3ccc4cc(C(=N)N)ccc4c3)cc2C1C1CCC1 (stereo not shown) | PLAU | inhibitor | – | pH 7.4 | 0.042 µM |
| Cc1cc(OS(=O)(=O)Oc2cccc(C(C)(C)C)c2)cc(C(=O)NO)c1 | HDAC11 | – | – | – | 1.7 µM |
| Nc1ccc2nc(N)ccc2c1 | PLAU | inhibitor | – | pH 7.4 | > 104 µM |
| OC[C@H]1N/C(=N\CCCc2ccccc2)[C@H](O)[C@@H](O)[C@H]1O | β-glucosidase sweet almond | enzyme activity, inhibitor | – | pH 5.00 | 0.0281 ± 0.0026 µM |
| Nc1cc2ccccc2cn1 | PLAU | inhibitor | – | pH 7.4 | > 30 µM |
| C[C@H](CCC(=O)NCCS(=O)(=O)O)[C@H]1CC[C@H]2[C@@H]3[C@@H](O)C[C@@H]4C[C@H](O)CC[C@]4(C)[C@H]3CC[C@]12C | OSBP (Homo sapiens, UniProt P22059) | – | – | – | > 100 µM |
